Measured values gathered from unrelated publications.
Parts stem from different laboratories: compare values within a part only. Substitutions count along the parent as printed.
Sequence of UniProt O15294 (whole entry, looked up): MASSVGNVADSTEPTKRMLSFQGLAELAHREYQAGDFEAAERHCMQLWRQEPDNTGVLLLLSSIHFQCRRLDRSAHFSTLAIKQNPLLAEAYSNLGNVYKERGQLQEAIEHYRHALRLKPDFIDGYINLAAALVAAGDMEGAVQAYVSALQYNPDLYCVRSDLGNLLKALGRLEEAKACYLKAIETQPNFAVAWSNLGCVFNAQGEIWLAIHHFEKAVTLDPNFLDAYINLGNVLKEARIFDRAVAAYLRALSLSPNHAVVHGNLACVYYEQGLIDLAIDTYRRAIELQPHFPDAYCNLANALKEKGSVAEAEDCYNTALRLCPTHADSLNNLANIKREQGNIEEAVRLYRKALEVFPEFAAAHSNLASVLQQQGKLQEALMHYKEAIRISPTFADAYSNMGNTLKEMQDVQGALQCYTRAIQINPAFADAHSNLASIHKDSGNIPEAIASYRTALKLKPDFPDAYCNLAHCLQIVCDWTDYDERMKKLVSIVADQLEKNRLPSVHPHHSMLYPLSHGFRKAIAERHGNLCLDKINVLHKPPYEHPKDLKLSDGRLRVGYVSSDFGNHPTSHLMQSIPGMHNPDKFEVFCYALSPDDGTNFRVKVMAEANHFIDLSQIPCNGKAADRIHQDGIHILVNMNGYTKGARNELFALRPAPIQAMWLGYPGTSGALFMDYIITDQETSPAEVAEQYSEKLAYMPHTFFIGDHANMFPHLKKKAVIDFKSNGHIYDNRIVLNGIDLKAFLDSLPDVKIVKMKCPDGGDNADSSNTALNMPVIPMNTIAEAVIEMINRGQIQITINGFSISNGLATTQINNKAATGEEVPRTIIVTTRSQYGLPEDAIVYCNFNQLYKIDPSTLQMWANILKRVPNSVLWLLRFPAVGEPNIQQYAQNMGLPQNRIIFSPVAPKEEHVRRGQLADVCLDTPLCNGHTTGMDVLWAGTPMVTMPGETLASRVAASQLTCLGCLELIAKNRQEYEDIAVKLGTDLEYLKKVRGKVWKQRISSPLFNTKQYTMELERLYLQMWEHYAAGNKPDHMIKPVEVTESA

Set 1
Target: CRIPT, C-terminal peptide
Technique: DHFR complementation, deep sequencing
Medium: yeast
Setting: single substitutions, model-inferred values
Baseline: wild type
Reading: higher = weaker binding
Starting sequence: ERBIN, PDZ domain 1 (human); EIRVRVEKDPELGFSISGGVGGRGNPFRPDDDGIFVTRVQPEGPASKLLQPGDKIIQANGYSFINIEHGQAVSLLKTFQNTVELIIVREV; partner TKNYKQTSV
Change	binding free energy change [kcal/mol]
G60P	1.1
R28N	-0.0824
I85V	-0.0949
V39C	0.446
R88M	1.6
S73T	-0.051
D31W	0.985
K54G	1.28

Set 2
Target: Sal-like protein 4, full length isoform A (SALL4, Homo sapiens, UniProt Q9UJQ4, residues 1-1053)
Sequence of UniProt Q9UJQ4 (whole entry, looked up): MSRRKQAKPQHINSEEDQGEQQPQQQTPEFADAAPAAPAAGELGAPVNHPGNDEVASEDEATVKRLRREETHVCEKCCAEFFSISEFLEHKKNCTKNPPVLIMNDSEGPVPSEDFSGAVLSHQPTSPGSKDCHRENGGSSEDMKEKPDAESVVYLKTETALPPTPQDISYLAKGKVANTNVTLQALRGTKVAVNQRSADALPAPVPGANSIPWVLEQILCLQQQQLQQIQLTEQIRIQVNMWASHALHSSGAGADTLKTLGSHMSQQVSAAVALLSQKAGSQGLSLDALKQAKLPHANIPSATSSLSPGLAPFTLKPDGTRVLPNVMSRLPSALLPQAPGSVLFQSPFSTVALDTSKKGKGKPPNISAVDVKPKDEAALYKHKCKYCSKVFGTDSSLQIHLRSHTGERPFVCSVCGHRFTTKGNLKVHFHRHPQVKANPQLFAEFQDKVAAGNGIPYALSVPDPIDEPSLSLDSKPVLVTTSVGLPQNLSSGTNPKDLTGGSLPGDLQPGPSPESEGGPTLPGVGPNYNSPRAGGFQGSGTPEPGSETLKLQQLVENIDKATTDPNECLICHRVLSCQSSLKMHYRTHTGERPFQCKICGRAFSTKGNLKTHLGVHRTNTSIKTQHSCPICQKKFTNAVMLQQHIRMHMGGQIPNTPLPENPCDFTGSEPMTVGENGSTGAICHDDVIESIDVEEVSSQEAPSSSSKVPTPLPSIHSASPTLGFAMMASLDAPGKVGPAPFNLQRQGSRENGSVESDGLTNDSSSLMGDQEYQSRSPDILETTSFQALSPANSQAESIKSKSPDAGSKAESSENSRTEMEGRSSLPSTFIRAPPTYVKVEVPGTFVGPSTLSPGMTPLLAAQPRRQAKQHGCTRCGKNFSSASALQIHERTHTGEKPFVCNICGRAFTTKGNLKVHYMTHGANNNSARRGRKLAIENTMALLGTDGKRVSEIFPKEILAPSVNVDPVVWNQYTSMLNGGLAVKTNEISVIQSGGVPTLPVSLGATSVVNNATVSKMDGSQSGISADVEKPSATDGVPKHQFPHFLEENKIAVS
Technique: universal PBM
Form: double-stranded DNA, one strand shown
Medium: in vitro
Concentration: 600 nM
Setting: 8-mer, flanks averaged, mean of replicates
Reading: higher = stronger binding
Oligonucleotide	E-score
GCCCAACA	-0.253
CATGGGAC	-0.192
ATATTTCA	0.383
AAAGTTGA	0.11
CCACTCAC	-0.0789
CCAGCAGG	-0.329
CTATCGTA	0.227
CTTGAATA	0.221

Set 3
Target: TAR DNA-binding protein 43, full length, His tag (TARDBP, Homo sapiens, UniProt Q13148, residues 1-414)
Technique: RNA Bind-n-Seq
Form: RNA
Medium: in vitro
Concentration: 20 nM
Setting: 6-mer, flanks averaged, single round
Together with: 150 mM KCl
Baseline: input library
Reading: higher = stronger binding
Oligonucleotide	6-mer enrichment (R)
ACCCUA	0.63
UCCGUG	0.812
UAGGUU	0.698
CGUCCG	0.801
UACAUA	0.587
GAAGUC	0.761
CUUUCC	0.571
CUGGGC	1.86

Single results of other studies
Sequence	target	test	system	conditions	how to read	quantity	value
HIQEMHWHQINHEFT	UDP-N-acetylglucosamine--peptide N-acetylglucosaminyltransferase 110 kDa subunit (OGT, Homo sapiens, UniProt O15294)	binding, phage display NGS	peptide	panning round 2	baseline: input library	minimum log2 enrichment ratio	1.53

Excerpt of the above (set 1):
Change	binding free energy change [kcal/mol]
K54G	1.28
R88M	1.6
I85V	-0.0949
